Measured values gathered from unrelated publications.
Lines come from different studies, so protocols differ.
Organism: Cryptosporidium parvum

The EC50 of `O=C(Cc1ccc(Br)c(F)c1)N1CCN(c2ccc3nncn3n2)CC1` is reported as less than 1000 nM (high-content imaging; HCT-8).
`O=C1NC(=O)/C(=C/c2ccc3ncnc(N4CCCCC4)c3n2)S1` gave an EC50 of 160 nM (parasite growth, immunofluorescence microscopy; HCT-8, Iowa; 48 h post infection, compound added at 3 h).
The EC50 of `Cc1ccc(C(=O)c2cc(O)c(O)c([N+](=O)[O-])c2)cc1` is reported as greater than 100000 nM (parasite growth, qRT-PCR; HCT-8; 44 h).
With `COc1ccc(NC(=O)N2CCCCN3C[C@H](c4ccc(C#Cc5ccccc5)cc4)[C@@H]3C2)cc1` the EC50 was 31 nM (parasite growth; Iowa (Sterling)).
With `O=C(Cc1ccc(Cl)c(F)c1)N1CCN(c2ccc3nncn3n2)CC1` the EC50 was less than 1000 nM (high-content imaging; HCT-8).
With `COc1ccc(NC(=O)N2CCCCN3[C@H](COCCC(=O)O)[C@H](c4ccc(C#Cc5ccccc5)cc4)[C@@H]3C2)cc1` the EC50 was 9 nM (growth inhibition; WSU field isolate).
`COc1cccc(CC(=O)N2CCN(c3ccc4nncn4n3)CC2)c1` gave an EC50 of 17000 nM (high-content imaging; HCT-8).
`COc1ccc(NC(=O)N2CCCCN3[C@H](CN(C)S(C)(=O)=O)[C@H](c4ccc(C#Cc5ccccc5)cc4)[C@@H]3C2)cc1` has an EC50 of 7 nM (parasite growth, high-content microscopy; Iowa (Bunch Grass Farm); 10% FBS).
The EC50 of `COc1ccc(CNc2nc(-c3ccc(C(=O)O)cc3)nc3sc4ccccc4c23)cc1Cl` is reported as 1000 nM (parasite growth, immunofluorescence microscopy; HCT-8, Iowa; 48 h post infection, compound added at 3 h).
